Measurements collected from several papers.
Lines come from different studies, so protocols differ. Numbers after ± are the reported error.
UCHL1: Ubiquitin carboxyl-terminal hydrolase isozyme L1 (UCHL1, Homo sapiens, UniProt P09936)
Sequence of UniProt P09936 (whole entry, looked up): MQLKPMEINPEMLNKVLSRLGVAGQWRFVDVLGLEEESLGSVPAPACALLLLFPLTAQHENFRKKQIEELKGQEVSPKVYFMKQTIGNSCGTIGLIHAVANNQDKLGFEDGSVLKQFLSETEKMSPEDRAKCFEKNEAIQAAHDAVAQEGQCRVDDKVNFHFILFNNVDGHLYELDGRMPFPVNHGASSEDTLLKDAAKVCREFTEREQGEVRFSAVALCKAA

Compound | target or system | test | test system | conditions | how to read | quantity | result
CC(=O)Nc1cc(Oc2ccc3c(c2)nc(Nc2ccc(F)cc2F)n3C)ccn1 | HepG2 | cytotoxicity | – | 48 h | – | EC50 | 0.9 ± 0.3 µM
O=C1C(O)=C([C@H]2CC[C@H](c3ccc(Cl)cc3)CC2)C(=O)c2ccccc21 | HepG2 | – | – | 72 h | relative to: HepG2 CC50 over EC50 | selectivity index | 62
CC1CCc2c(sc(NC(=O)Cn3cnc([N+](=O)[O-])n3)c2C(N)=O)C1 (centres unmarked) | Trypanosoma cruzi | reporter translation, Renilla luciferase mRNA translation | cell-free extract | 40 µM | relative to: DMSO | inhibition | -22.9%
Fc1ccc2[nH]c(Cc3c[nH]c4c(F)cccc34)cc2c1 | HepG2 | – | – | up to 50 µM | – | cytotoxicity | not toxic
[131I-].[Na+] | HepG2 | – | – | 7 µCi/well, 24 h | – | cell retention | 1.26 ± 0.35%
CCS(=O)(=O)Nc1ccc(C(=O)NC2CC3CCC2C3)cc1 (centres unmarked) | HepG2 | cytotoxicity, CellTiter-Glo | – | 3 days | – | IC50 | > 56 µM
N#CC(=Cc1ccccc1)C(=O)Nc1ccccc1F | UCHL1 | covalent, intact protein LC-MS | – | 12.5 µM | – | labelling | 10.8%
CCN1CCN(Cc2ccc(Nc3nc4cc(Oc5ccnc(NC(C)=O)c5)ccc4n3C)cc2C(F)(F)F)CC1 | HepG2 | cytotoxicity | – | 48 h | – | EC50 | 7.7 ± 0.3 µM
CCN(CC)c1ccc(CNc2nn[nH]n2)cc1 | HepG2 | cytotoxicity, CellTiter-Glo | – | 3 days | – | IC50 | > 56 µM
CC(=O)[C@]1(O)Cc2c(O)c3c(c(O)c2[C@@H](O[C@H]2C[C@H](N)[C@H](O)[C@H](C)O2)C1)C(=O)c1ccccc1C3=O | HepG2 | – | – | 72 h | relative to: HepG2 CC50 over EC50 | selectivity index | 1
O=[N+]([O-])c1ccc2[nH]c(CNCC34CC5CC(CC(C5)C3)C4)nc2c1 | HepG2 | – | – | – | – | CC50 | 42 ± 4.8 µg/mL
COc1cc(-c2oc3cc(O)cc(O)c3c(=O)c2O[C@@H]2O[C@H](CO)[C@@H](O)[C@H](O)[C@H]2O)ccc1O | HepG2 | CellTiter-Glo | – | – | – | highest non-cytotoxic concentration | > 200 µM
N#C[C@@]12C[C@@H]1[C@@H](n1cnc3c(N[C@@H](C4CCC4)C4CC4)nc(I)nc31)[C@H](O)[C@@H]2O | HepG2 | cytotoxicity | – | – | – | IC50 | 17.2 µM
CC[C@@H]1/C=C(\C)C[C@H](C)C[C@H](OC)[C@H]2O[C@@](O)(C(=O)C(=O)N3CCCC[C@H]3C(=O)O[C@H](/C(C)=C/[C@@H]3CC[C@H](Cl)[C@H](OC)C3)[C@H](C)[C@@H](O)CC1=O)[C@H](C)C[C@@H]2OC | HepG2 | Alamar Blue | – | 48 h | – | TC50 | > 400 µM
O=C(Cc1ccc(F)cc1)N1CCN(c2nc3c(Cl)cccc3s2)CC1 | HepG2 | cytotoxicity, CellTiter-Glo | – | 3 days | – | IC50 | > 56 µM
CN1CCC(C(=O)Nc2n[nH]c3nc(-c4ccc(O)cc4)c(Br)cc23)CC1.O=C(O)/C=C\C(=O)O | HepG2 | cytotoxicity | – | PKIS HTS | – | pTC50 | 5.5
CCOCC(=O)N1CCC[C@H](C(=O)NCc2nc(-c3ccc(C#N)cc3)cs2)C1 | HepG2 | CellTiter-Glo | – | 96 h | – | CC50 | > 50 µM
CCN1CCN(Cc2ccc(Nc3nc4cc(Oc5ccnc(NC(=O)C6CCN(C)CC6)c5)ccc4n3C)cc2C(F)(F)F)CC1 | HepG2 | cytotoxicity | – | 48 h | – | EC50 | 12.1 ± 1.5 µM

Compound | target or system | test | test system | conditions | how to read | quantity | result
CC(=O)Nc1ccc(O)cc1 | HepG2 | ATPlite | – | 18 to 24 h, with: deferoxamine | – | CC50 | > 1000 µM
COc1ccc(Nc2cnnc3cc(-c4cnc(N5CCCN(C)CC5)nc4)ccc23)cc1Cl | HepG2 | cytotoxicity | – | – | – | TC50 | > 2.1 µM
CSc1cccc(NC(=O)CCc2c(C)nc3c4cccnc4nn3c2C)c1 | HepG2 | cytotoxicity, CellTiter-Glo | – | 3 days | – | IC50 | > 56 µM
O=C1c2ccccc2C(=O)c2c(NCCc3ccc(O)cc3)ccc(NCCc3ccc(O)cc3)c21 | HepG2 | – | – | 72 h | relative to: HepG2 CC50 over EC50 | selectivity index | 4
Cc1ccc(Nc2cnnc3ccc(-c4ccc(N5CCN(C)CC5)cc4)cc23)cn1 | HepG2 | cytotoxicity | – | – | – | TC50 | > 24 µM
O=C(CCl)Nc1nnc(-c2ccccc2Cl)s1 | UCHL1 | covalent, intact protein LC-MS | – | 12.5 µM | – | labelling | 21.1%
O=C1C[C@@H](c2ccc(O)cc2)Oc2cc(O)cc(O)c21 | HepG2 | viability, CellTiter-Glo | – | – | – | highest non-cytotoxic concentration | > 200 µM
CCN1CCN(Cc2ccc(Nc3nc4ccc(Oc5ccnc(N)c5)cc4n3C)cc2C(F)(F)F)CC1 | HepG2 | cytotoxicity | – | 48 h | – | EC50 | 5.5 ± 0.3 µM
CN1CCN(c2ccc(-c3ccc4nncc(Nc5ccc(OC(F)(F)F)cc5)c4c3)cc2)CC1 | HepG2 | cytotoxicity | – | – | – | TC50 | 18 µM
COc1cc(C(=O)NS(=O)(=O)c2ccccc2C)ccc1Cc1cn(C)c2ccc(NC(=O)OC3CCCC3)cc12 | HepG2 | cytotoxicity, resazurin | – | 24 h | – | highest non-cytotoxic concentration | > 128 µM
CCn1c(-c2nonc2N)nc2cncc(C(=O)N3CC[C@H](N)C3)c21 | HepG2 | cytotoxicity | – | PKIS HTS | – | pTC50 | < 4
CCN1CCN(Cc2ccc(Nc3nc4ccc(Oc5ccnc(NC(=O)CCN(C)C)c5)cc4n3C)cc2C(F)(F)F)CC1 | HepG2 | cytotoxicity | – | 48 h | – | EC50 | 4.7 ± 0.6 µM
CN1CCC(c2cc(-c3ccncc3)c(-c3ccc(F)cc3)[nH]2)CC1 | HepG2 | MTS | – | 20 µM, 48 h | – | viability | 60%
CC(=O)Nc1cc(Oc2ccc3nc(Nc4ccc(F)cc4F)n(C)c3n2)ccn1 | HepG2 | cytotoxicity | – | 48 h | – | EC50 | > 20 µM
CC(=O)Oc1ccccc1C(=O)O | HepG2 | ATPlite | – | 18 to 24 h, with: deferoxamine | – | CC50 | > 1000 µM
CCN1CCN(Cc2ccc(Nc3nc4ccc(Oc5ccnc(NC(=O)C6CCN(C)CC6)c5)cc4n3C)cc2C(F)(F)F)CC1 | HepG2 | cytotoxicity | – | 48 h | – | EC50 | 4.8 ± 0.7 µM
Cc1ccc(Nc2cnnc3ccc(-c4ccc(N5CCCN(C)CC5)cc4)cc23)cn1 | HepG2 | cytotoxicity | – | – | – | TC50 | > 24 µM

Repeated from above:
Compound | target or system | test | test system | conditions | how to read | quantity | result
CCN1CCN(Cc2ccc(Nc3nc4ccc(Oc5ccnc(N)c5)cc4n3C)cc2C(F)(F)F)CC1 | HepG2 | cytotoxicity | – | 48 h | – | EC50 | 5.5 ± 0.3 µM
CC(=O)Nc1cc(Oc2ccc3c(c2)nc(Nc2ccc(F)cc2F)n3C)ccn1 | HepG2 | cytotoxicity | – | 48 h | – | EC50 | 0.9 ± 0.3 µM
O=C(Cc1ccc(F)cc1)N1CCN(c2nc3c(Cl)cccc3s2)CC1 | HepG2 | cytotoxicity, CellTiter-Glo | – | 3 days | – | IC50 | > 56 µM
O=C1C(O)=C([C@H]2CC[C@H](c3ccc(Cl)cc3)CC2)C(=O)c2ccccc21 | HepG2 | – | – | 72 h | relative to: HepG2 CC50 over EC50 | selectivity index | 62
O=C1c2ccccc2C(=O)c2c(NCCc3ccc(O)cc3)ccc(NCCc3ccc(O)cc3)c21 | HepG2 | – | – | 72 h | relative to: HepG2 CC50 over EC50 | selectivity index | 4
